Measurements gathered from unrelated publications.
Each line is one published result; not all experiments were run side by side. Numbers after ± are the reported error.

Compound	target or system	assay	system	setting	quantity	result
CCCCCCCCCCCCS(=O)(=O)N[C@H]1C(=O)N[C@@H]2Cc3ccc(c(Cl)c3)Oc3cc4cc(c3O)Oc3ccc(cc3Cl)[C@@H](O[C@@H]3O[C@H](CO)[C@@H](O)[C@H](O)[C@H]3NC(C)=O)[C@H]3NC(=O)[C@H](NC(O)[C@@H]4NC(=O)[C@@H](NC2=O)c2cc(O)cc(c2)Oc2cc1ccc2O)c1ccc(O)c(c1)-c1c(O)cc(O)cc1[C@H](C(=O)O)NC3=O (stereo partly shown)	human coronavirus 229E	viral replication	HEL	120 h	EC50	~2 µM
O=C(N/N=C1\C(=O)Nc2ccccc21)N/N=C1\C(=O)Nc2ccccc21	influenza A virus	cytopathic effect, MTS	MDCK, H1N1	–	EC50	> 100 µM
NC(=O)c1ncn([C@@H]2O[C@H](CO)[C@@H](O)[C@H]2O)n1	Influenza A virus	viral cytopathic effect, MTS	MDCK, H3N2	–	EC50	9.3 µM
Cc1ccsc1/C=C1\OC(=O)c2c1cc(C)n(C)c2=S	influenza A H1N1, H3N2, influenza B	cytopathic effect	MDCK, A/Puerto Rico/8/34, A/Hong Kong/8/68, B/Lee/40	range over three viruses	EC50	< 20 µM
CCC(CC)O[C@@H]1C=C(C(=O)O)C[C@H](N)[C@H]1NC(C)=O	Influenza A virus	viral cytopathic effect, visual CPE score	MDCK, H3N2	–	EC50	9 µM
NC(=O)c1ncn([C@@H]2O[C@H](CO)[C@@H](O)[C@H]2O)n1	Influenza A virus H3N2	viral replication, MTS	MDCK	–	EC50	2 ± 0.2 µM
CC(N)C12CC3CC(CC(C3)C1)C2 (stereo not shown)	Influenza A virus	viral cytopathic effect, visual CPE score	MDCK, H3N2	–	EC50	> 200 µM
O=C1O/C(=C\c2cccs2)c2cc(-c3ccccc3)[nH]c(=S)c21	influenza A H1N1, H3N2, influenza B	cytopathic effect	MDCK, A/Puerto Rico/8/34, A/Hong Kong/8/68, B/Lee/40	range over three viruses	EC50	15.1 to 31.7 µM
CCC(CC)O[C@@H]1C=C(C(=O)O)C[C@H](N)[C@H]1NC(C)=O	influenza A virus	viral replication, visual CPE score	MDCK, H1N1	–	EC50	9 ± 0.22 µM
Cc1oncc1C(=O)Nc1ccc(C(F)(F)F)cc1	human coronavirus 229E	cytopathic effect, CellTiter-Glo	MRC5	3 d	EC50	59.5 µM
CC(N)C12CC3CC(CC(C3)C1)C2 (stereo not shown)	influenza A virus	viral replication, visual CPE score	MDCK, H1N1	–	EC50	10 ± 0.27 µM
O=C1/C(=N\NC(=S)NN=Cc2ccccc2)c2ccccc2N1Cc1ccccc1	influenza A virus	cytopathic effect, visual CPE score	MDCK, H1N1	–	EC50	> 100 µM
CN[C@@](C)(C[18F])C(=O)O	–	–	SCID mouse SK-OV-3 xenograft, muscle	60 min, post injection	tissue uptake	0.7 ± 0.1 %ID/g
NC12CC3CC(CC(C3)C1)C2	influenza A virus	cytopathic effect, visual CPE score	MDCK, H1N1	–	EC50	5 µM
CCC(CC)COC(=O)[C@H](C)N[P@](=O)(OC[C@H]1O[C@@](C#N)(c2ccc3c(N)ncnn23)[C@H](O)[C@@H]1O)Oc1ccccc1	human coronavirus 229E	viral replication, qPCR, item: viral RNA	MRC-5	48 h	EC50	0.015 µM
Cc1ccc2c(c1)/C(=N/NC(=O)N/N=C1\C(=O)Nc3ccc(C)cc31)C(=O)N2	Influenza A virus H3N2	viral replication, MTS	MDCK	–	EC50	> 20 µM
Cc1cc2c(c(=S)[nH]1)C(=O)O/C2=C\c1ccc(C)s1	influenza A H1N1, H3N2, influenza B	cytopathic effect	MDCK, A/Puerto Rico/8/34, A/Hong Kong/8/68, B/Lee/40	range over three viruses	EC50	< 20 µM
O=C(N/N=C1\C(=O)Nc2ccc(Cl)cc21)N/N=C1\C(=O)Nc2ccc(Cl)cc21	influenza A virus	cytopathic effect, MTS	MDCK, H1N1	–	EC50	> 100 µM
Nc1ncnc2c1ncn2CCOCP(=O)(OCCCCCCCCC(O)CO)OCCCCCCCCC(O)CO (stereo not shown)	influenza A virus H3N2	viral replication	MDCK	–	EC50	> 32.4 µM

For quick reference, copied from above:
Compound	target or system	assay	system	setting	quantity	result
CC(N)C12CC3CC(CC(C3)C1)C2 (stereo not shown)	Influenza A virus	viral cytopathic effect, visual CPE score	MDCK, H3N2	–	EC50	> 200 µM
NC(=O)c1ncn([C@@H]2O[C@H](CO)[C@@H](O)[C@H]2O)n1	Influenza A virus H3N2	viral replication, MTS	MDCK	–	EC50	2 ± 0.2 µM
O=C1O/C(=C\c2cccs2)c2cc(-c3ccccc3)[nH]c(=S)c21	influenza A H1N1, H3N2, influenza B	cytopathic effect	MDCK, A/Puerto Rico/8/34, A/Hong Kong/8/68, B/Lee/40	range over three viruses	EC50	15.1 to 31.7 µM
